Measurements pooled from the literature.
Compare with care: the assays were run in different laboratories. Numbers after ± are the reported error.

| Structure (SMILES) | cell line | test | conditions | IC50 |
| --- | --- | --- | --- | --- |
| CC1(C)O[C@H]1COc1c2ccoc2cc2oc(=O)ccc12 | NIH3T3 | cell growth or viability, MTT | 24 h | 57.2 µM |
| CCCN(Cc1ccccc1OC)C(=O)c1cccc(C(F)(F)F)c1 | HEK293 | cell viability, MTT | 72 h | 29 to 31 µM |
| COc1cccc2c1C(=O)c1c(O)c3c(c(O)c1C2=O)C[C@@](O)(C(=O)CO)C[C@@H]3O[C@H]1C[C@H](N)[C@H](O)[C@H](C)O1 | NIH3T3 | cell growth or viability, MTT | 24 h | 5.71 µM |
| CC1=C(CC(=O)Oc2ccc(-c3cc(=S)ss3)cc2)c2cc(F)ccc2/C1=C\c1ccc([S+](C)[O-])cc1 (stereo not shown) | HepG2 and LS180 | EROD activity, inhibitor | 24 h, averaged over cell lines, together with: TCDD 250 pmol | 22 µM |
| CCCCOC(=O)Nc1cc2nc(C3CCCCC3)[nH]c2cc1N(CC)CCN(C)C | Vero | cytotoxicity, Alamar Blue | 3 days, 37 °C | > 100 µg/mL |
| CCCCN(Cc1ccccc1OC)C(=O)c1cc(C)c(C)s1 | HEK293 | cell viability, MTT | 72 h | 24 ± 13 µM |
| CN(C)c1cc2[nH]c(C3CCCCC3)nc2cc1NC(=O)c1cccc(Br)c1 | Vero | cytotoxicity, Alamar Blue | 3 days, 37 °C | > 100 µg/mL |
| CCCN(Cc1ccccc1OC)C(=O)c1cc(C)c(C)s1 | HEK293 | cell viability, MTT | 72 h | 3.9 ± 1.6 µM |
| CN(C)c1cc2[nH]c(C3CCCCC3)nc2cc1NC(=O)c1ccc(Br)cc1 | Vero | cytotoxicity, Alamar Blue | 3 days, 37 °C | > 100 µg/mL |
| CCCCC(CC)COC(=O)CC(C(=O)OCC(CC)CCCC)S(=O)(=O)O.CN(C)C(=N)N=C(N)N (stereo not shown) | SK-N-BE(2)-C | cell growth or viability, SRB | – | 36 µM |
